Published values collected from several papers.
Parts stem from different laboratories: compare values within a part only.
UniProt Q9UHD2, sequence (whole entry, looked up): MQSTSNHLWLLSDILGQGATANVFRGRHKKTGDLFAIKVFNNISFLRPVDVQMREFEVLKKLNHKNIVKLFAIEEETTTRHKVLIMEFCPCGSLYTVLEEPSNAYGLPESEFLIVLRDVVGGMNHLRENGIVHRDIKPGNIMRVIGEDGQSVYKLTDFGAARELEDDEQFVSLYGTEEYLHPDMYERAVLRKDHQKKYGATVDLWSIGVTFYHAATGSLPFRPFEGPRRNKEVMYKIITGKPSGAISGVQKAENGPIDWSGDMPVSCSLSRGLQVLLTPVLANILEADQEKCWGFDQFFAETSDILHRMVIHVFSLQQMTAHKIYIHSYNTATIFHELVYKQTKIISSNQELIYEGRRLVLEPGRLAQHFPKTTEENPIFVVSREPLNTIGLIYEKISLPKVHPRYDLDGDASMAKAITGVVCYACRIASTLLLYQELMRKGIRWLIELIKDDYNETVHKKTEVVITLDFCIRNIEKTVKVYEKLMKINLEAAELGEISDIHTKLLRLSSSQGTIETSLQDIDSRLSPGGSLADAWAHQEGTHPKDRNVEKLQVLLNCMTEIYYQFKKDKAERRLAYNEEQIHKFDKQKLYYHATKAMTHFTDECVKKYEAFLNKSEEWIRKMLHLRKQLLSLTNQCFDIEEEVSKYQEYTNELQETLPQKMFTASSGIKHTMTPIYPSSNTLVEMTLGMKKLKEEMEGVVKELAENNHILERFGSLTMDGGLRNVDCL
UniProt P78362, sequence (whole entry, looked up): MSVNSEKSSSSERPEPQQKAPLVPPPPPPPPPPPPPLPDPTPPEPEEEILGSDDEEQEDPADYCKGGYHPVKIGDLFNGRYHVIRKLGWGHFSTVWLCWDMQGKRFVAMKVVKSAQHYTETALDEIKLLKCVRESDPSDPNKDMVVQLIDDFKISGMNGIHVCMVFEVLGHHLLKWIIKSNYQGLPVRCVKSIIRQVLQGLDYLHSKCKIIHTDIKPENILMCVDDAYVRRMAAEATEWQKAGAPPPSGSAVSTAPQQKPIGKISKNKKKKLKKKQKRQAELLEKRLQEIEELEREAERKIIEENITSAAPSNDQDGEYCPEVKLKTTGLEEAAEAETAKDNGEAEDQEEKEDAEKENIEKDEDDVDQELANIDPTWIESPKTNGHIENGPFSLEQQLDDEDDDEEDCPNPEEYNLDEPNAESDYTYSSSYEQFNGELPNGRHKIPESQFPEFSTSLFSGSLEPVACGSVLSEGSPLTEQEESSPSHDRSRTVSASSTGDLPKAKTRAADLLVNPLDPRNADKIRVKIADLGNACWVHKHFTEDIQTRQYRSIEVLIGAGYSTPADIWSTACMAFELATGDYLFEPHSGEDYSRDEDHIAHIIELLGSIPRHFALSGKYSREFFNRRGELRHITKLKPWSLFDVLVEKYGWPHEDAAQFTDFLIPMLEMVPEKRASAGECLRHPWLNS
UniProt P42685, sequence (whole entry, looked up): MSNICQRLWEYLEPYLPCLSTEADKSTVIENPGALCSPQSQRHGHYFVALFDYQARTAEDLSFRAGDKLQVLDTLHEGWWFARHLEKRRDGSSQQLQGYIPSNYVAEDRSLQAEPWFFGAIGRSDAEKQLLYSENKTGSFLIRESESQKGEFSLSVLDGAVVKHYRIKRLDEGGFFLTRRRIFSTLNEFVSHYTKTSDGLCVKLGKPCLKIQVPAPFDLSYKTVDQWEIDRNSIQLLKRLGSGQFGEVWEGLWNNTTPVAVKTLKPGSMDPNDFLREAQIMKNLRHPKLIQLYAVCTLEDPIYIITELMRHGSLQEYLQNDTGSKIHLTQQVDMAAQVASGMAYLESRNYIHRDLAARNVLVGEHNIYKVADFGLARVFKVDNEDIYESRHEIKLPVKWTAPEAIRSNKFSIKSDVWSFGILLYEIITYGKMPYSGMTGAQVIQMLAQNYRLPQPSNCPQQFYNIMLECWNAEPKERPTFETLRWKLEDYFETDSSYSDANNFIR
UniProt P11362, sequence (whole entry, looked up): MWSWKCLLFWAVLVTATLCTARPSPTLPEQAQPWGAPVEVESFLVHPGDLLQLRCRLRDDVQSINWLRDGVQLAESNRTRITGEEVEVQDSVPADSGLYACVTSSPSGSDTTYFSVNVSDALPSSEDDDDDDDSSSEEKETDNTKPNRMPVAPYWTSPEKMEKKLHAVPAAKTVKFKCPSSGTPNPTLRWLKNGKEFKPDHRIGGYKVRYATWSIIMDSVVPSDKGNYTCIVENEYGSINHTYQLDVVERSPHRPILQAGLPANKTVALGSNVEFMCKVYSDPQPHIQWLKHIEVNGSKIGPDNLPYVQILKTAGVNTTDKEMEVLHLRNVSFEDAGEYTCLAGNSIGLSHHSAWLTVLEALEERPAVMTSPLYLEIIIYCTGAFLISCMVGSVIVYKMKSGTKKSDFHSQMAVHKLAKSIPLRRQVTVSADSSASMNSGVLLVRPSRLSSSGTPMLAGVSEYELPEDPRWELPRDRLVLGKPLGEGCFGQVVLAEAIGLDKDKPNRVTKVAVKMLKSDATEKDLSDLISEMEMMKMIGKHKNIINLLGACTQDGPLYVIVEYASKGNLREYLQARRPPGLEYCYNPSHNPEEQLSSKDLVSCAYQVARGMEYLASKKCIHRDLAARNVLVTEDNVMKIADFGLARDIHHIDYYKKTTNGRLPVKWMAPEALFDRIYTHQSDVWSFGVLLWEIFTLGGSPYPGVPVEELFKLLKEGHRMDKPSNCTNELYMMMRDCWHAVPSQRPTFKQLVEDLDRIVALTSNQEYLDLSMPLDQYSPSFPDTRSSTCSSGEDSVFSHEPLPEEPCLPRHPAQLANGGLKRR
UniProt P49841, sequence (whole entry, looked up): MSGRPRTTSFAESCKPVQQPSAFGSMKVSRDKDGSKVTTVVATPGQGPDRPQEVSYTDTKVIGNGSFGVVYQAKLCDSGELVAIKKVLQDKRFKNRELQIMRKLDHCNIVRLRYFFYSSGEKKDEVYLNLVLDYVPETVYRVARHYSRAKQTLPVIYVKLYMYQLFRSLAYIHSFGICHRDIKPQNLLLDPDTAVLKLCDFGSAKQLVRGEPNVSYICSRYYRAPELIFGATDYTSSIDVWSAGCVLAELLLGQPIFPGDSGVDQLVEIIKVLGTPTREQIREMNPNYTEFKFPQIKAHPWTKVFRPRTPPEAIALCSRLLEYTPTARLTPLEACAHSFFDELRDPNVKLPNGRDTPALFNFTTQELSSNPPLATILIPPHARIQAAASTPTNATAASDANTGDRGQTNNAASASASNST
UniProt P78368, sequence (whole entry, looked up): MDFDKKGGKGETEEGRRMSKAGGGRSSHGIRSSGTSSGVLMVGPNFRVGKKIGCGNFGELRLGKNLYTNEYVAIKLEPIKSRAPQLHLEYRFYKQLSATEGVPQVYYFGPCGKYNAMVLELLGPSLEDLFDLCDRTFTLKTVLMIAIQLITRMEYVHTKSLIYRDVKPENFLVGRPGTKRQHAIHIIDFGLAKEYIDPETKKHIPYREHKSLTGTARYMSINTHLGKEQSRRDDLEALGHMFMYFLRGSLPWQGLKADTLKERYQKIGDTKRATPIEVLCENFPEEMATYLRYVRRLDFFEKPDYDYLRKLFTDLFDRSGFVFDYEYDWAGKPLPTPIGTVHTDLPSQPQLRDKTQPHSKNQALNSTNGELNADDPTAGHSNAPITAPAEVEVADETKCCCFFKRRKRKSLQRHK
UniProt P29320, sequence (whole entry, looked up): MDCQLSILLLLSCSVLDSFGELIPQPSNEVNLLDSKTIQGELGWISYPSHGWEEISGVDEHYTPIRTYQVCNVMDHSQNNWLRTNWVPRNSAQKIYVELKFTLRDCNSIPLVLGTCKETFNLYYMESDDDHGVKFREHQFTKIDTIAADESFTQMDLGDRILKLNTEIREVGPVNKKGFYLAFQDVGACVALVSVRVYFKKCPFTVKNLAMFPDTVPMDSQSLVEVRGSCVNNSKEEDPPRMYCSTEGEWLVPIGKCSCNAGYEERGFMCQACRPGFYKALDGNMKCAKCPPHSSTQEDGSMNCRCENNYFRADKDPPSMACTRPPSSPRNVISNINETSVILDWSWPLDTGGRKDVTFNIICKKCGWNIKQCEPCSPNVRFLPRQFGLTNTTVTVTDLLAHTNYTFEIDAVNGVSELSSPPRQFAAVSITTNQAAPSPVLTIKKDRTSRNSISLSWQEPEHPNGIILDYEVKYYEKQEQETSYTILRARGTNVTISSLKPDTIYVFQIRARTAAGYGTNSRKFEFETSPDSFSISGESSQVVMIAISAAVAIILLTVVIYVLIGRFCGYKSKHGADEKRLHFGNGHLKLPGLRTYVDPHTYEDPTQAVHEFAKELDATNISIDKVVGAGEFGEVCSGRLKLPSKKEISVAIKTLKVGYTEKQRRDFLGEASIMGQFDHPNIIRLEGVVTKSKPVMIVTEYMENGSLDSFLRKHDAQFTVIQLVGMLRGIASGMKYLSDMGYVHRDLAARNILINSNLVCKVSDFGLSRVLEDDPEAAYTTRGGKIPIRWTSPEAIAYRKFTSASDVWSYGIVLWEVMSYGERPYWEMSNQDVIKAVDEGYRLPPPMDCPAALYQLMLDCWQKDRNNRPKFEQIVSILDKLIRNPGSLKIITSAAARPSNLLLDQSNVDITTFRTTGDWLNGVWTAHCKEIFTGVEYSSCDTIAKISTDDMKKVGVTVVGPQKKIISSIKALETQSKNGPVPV

Sample 1
Compound: CCN(CC)C(=O)c1ccc(Nc2nc(OCC3CCCCC3)c3[nH]cnc3n2)cc1
Effect on: enzyme activity
Action: inhibitor
Concentration: 0.5 µM
Baseline: control
FRK (Homo sapiens, UniProt P42685) — remaining activity: 116%.
For CSNK1G2 (Homo sapiens, UniProt P78368): remaining activity read 59.8%.
For EPHA3 (Homo sapiens, UniProt P29320): remaining activity read 99.9%.
It gave 72.8% for remaining activity (FGFR1 (Homo sapiens, UniProt P11362)).
It gave 53.1% for remaining activity (NEK1 (Homo sapiens, UniProt Q96PY6)).
For MERTK (Homo sapiens, UniProt Q12866): remaining activity read 71.6%.
MAP3K14 (Homo sapiens, UniProt Q99558) — remaining activity: 132%.
FGFR3 (Homo sapiens, UniProt P22607) — remaining activity: 66.9%.
The remaining activity was 30.9% (RPS6KA2 (Homo sapiens, UniProt Q15349)).
It gave 39.8% for remaining activity (LCK (Homo sapiens, UniProt P06239)).
For ULK2 (Homo sapiens, UniProt Q8IYT8): remaining activity read 84.9%.
It gave 85% for remaining activity (GSK3B (Homo sapiens, UniProt P49841)).
TBK1 (Homo sapiens, UniProt Q9UHD2) — remaining activity: 25.4%.

Sample 2
Compound: COc1cc(-c2cn(C3CCc4ccccc4N(CC(F)(F)F)C3=O)nn2)ccc1-n1ccc(C)n1 (centres unmarked)
Effect on: cell-free assay
Technique: competition with immobilised ligand
Concentration: 1 µM
For SRPK2 (Homo sapiens, UniProt P78362): remaining binding read 81%.
For Tyrosine-protein kinase ABL1, phosphorylated (ABL1, Homo sapiens, UniProt P00519, M351T): remaining binding read 64%.
The remaining binding was 100% (EGFR (Homo sapiens, UniProt P00533, del752-759)).
For PIK3CD (Homo sapiens, UniProt O00329): remaining binding read 100%.

Sample 3
Target: Ras GTPase-activating protein-binding protein 1, full length (G3BP1, Homo sapiens, UniProt Q13283)
UniProt Q13283, sequence (whole entry, looked up): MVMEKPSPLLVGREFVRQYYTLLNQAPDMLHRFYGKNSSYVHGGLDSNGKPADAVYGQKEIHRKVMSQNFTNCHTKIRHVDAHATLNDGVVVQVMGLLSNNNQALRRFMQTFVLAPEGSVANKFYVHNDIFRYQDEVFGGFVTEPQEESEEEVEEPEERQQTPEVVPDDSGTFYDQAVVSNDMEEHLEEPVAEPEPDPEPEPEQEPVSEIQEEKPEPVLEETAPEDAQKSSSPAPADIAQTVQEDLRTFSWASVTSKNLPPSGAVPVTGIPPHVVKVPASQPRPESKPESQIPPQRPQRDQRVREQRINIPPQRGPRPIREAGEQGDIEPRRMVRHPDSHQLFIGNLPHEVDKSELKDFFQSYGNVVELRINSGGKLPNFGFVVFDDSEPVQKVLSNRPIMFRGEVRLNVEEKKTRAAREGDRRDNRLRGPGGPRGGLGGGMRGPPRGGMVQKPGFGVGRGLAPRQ
Technique: RNA Bind-n-Seq
Molecule type: RNA
Matrix: in vitro
Concentration: 200 nM
Notes: whole 134-nt RNA, ends assumed
Added: 150 mM KCl
Baseline: input library
Reading: higher = stronger binding
`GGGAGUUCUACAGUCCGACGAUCUCCUGUGCUACACAUCGUAUGUACCGAAUCGGGAAAAAAAGGGAAAAAGGGAAAAAGGGAAAGUAUUAUGUUACGCCGUUCGGAUCUGCAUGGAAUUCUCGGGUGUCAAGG` gave a log2 enrichment of -0.343.
With `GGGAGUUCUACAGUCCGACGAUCUGUGCUACACAUCGUAUGUACCGAAUCGGGAAAAAAAGGGGAAAAAAAGGGGAAAAAAAGGGAAAGUAUUAUGUUACGCCGUUCGGAUCUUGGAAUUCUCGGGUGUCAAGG` the log2 enrichment was -0.558.
`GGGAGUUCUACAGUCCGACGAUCCACAGACAACACGCACCCACACAGACACAGAGGGAAGGGGUUGGGAUGGGGACAGGGUGCACAGCAUGGCGGGGUAGGACCCCAGCCCCUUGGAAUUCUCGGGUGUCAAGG` gave a log2 enrichment of 1.77.
`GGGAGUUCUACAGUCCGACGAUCAGUCCUGUGCUACACAUCGUAUGUACCGAAUCGGGAAAAAAAGGGUUUUUGGGUGGGAAAGUAUUAUGUUACGCCGUUCGGAUCUGCACUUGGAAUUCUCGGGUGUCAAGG` gave a log2 enrichment of -0.0593.
`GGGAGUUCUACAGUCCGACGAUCCCUGUGCUACACAUCGUAUGUACCGAAUCGGGGAAAAAGGGGAAAGGGGUUUUUUUGGGGAAAGUAUUAUGUUACGCCGUUCGGAUCUGCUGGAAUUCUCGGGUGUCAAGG` gave a log2 enrichment of 0.173.
With `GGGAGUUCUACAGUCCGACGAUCGUCCUGUGCUACACAUCGUAUGUACCGAAUCGGGGUUUGGGGUGGGGAAAAAAAGGGGAAAGUAUUAUGUUACGCCGUUCGGAUCUGCACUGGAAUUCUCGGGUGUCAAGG` the log2 enrichment was 0.274.
`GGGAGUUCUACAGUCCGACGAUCCACAGACAACACGCACCCACACAGACACAGAGGGAAGGGGUUGGGAUGGGGACAGGGUGCACAGCAGGGCGGCGUAGGACCCCAGCCCCUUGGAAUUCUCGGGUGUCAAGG` has a log2 enrichment of 1.9.
For `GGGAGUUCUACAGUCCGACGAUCCUCAAGUCCUGUGCUACACAUCGUAUGUACCGAAUCGGAGGUUUUUGGUUUGGAAAGUAUUAUGUUACGCCGUUCGGAUCUGCACUUCCAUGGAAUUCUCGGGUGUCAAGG`, the log2 enrichment was -0.728.

Mixed results
Technique: cross-linking MS
Matrix: cell fractions
For `GTF2A2 (Homo sapiens, UniProt P52657)`, cross-linked residues read “E86 to K952” (HERC5 (Homo sapiens, UniProt Q9UII4); added: DMTMM).
`RRS1 (Homo sapiens, UniProt Q15050)` — result for cross-linked residues: “K265 to T1307” (KIF14 (Homo sapiens, UniProt Q15058); added: DSSO).
For `EIF4A1 (Homo sapiens, UniProt P60842)`, cross-linked residues read “K369 to K206” (EIF4G2 (Homo sapiens, UniProt P78344); added: DSSO).
For `FKBP4 (Homo sapiens, UniProt Q02790)`, cross-linked residues read “K274 to T424” (SAMD4A (Homo sapiens, UniProt Q9UPU9); added: DSSO).

Some of these lines once more (sample 1):
It gave 39.8% for remaining activity (LCK (Homo sapiens, UniProt P06239)).
For ULK2 (Homo sapiens, UniProt Q8IYT8): remaining activity read 84.9%.
It gave 85% for remaining activity (GSK3B (Homo sapiens, UniProt P49841)).
TBK1 (Homo sapiens, UniProt Q9UHD2) — remaining activity: 25.4%.
